Experimental data pooled from the literature.
Numbered parts are unrelated; each lists some results of a single study. Changes are numbered by the printed parent chain.

Set 1
Target: RING finger protein unkempt homolog, zinc fingers 1-6, GST-SBP tag (UNK, Homo sapiens, UniProt Q9C0B0, residues 30-357)
UniProt Q9C0B0, sequence (30-357, looked up): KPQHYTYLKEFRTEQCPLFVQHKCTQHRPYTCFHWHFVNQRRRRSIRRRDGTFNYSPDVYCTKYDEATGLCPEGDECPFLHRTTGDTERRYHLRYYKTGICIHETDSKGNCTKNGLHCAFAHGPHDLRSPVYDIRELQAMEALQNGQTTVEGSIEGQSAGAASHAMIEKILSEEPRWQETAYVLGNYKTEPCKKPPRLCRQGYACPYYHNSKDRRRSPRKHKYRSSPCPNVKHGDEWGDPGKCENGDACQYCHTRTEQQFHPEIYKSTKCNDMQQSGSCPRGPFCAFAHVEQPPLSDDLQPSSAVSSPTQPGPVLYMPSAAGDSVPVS
Method: RNA Bind-n-Seq
Form: RNA
Medium: in vitro
Tested at: not given
Notes: RNA with constant flanks, human-mouse chimeric sites, ends assumed
Baseline: input RNA pool
Direction: higher = stronger binding
`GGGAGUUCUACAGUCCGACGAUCGUUCGGCUCUGGGAUCAUGCCACAAUGACAGAAGUGAAAUCUCUGAAUUUUAAUAUGUCUGUUAGCAGCAUGGAGUAUAUUCCUGAGGGAGAGAUUUUGGUUAUAACUUAUGGACGAUCUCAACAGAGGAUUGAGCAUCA` has a bound/input enrichment of 0.445 ratio.
For `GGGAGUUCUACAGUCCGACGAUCUUUGUAUUUAUGCUAAGCACACGUGCUGGUGGUCUGGGCAUCAAUCUUGCAACUGCUGAUGUAGUAAUUUUGUAUGACUCAGAUUGGAAUCCGCAAGUUGAUCUUCAGGCUAUGGACCGUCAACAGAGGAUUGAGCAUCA`, the bound/input enrichment was 0.176 ratio.
With `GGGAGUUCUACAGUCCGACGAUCAGGAGGAGGUUAAAGGGUGAGAGUGGGAUGGAGGAUUGUGUCAUGGCUCUGGAGACACUGUUCAGUGUUCUGCUUUCUCUGUGCAGACUGAUGGCCCCUUACACGCCCUUUCUGACUGAGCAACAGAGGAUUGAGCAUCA` the bound/input enrichment was 0.14 ratio.
With `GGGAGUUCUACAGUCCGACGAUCUACUCAACUUUCUUGCCACAUUUUGAAUUCCAAGACAUUAUUCCUCCAGAUGACUUCCUAACGAGUGAUGAAGAAGUAGAUUUGGUUUUAUUUGGAACUAUGAGAGGACAAGUUGUUGGACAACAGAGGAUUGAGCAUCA` the bound/input enrichment was 0.275 ratio.
`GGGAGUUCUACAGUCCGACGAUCGACUUUGGGACUGGUCCUCGUAAUGCAGCCUACUAUAGCCCUCAUGGACAUAUAUUAGUGCUGGCUGGAUUUGGAAAUCUUCGAGGACAAAUGGAAGUAUGGGAUGUUAAAAACUACAAGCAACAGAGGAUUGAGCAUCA` gave a bound/input enrichment of 0.385 ratio.
`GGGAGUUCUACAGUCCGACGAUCAUGGAGAAGGAUUCUCUGCCCCGCUUUGUGCGCUCUGAGUUUUAUCAGGAGUUAAUCAAGUAGUCAUCUGGUCAGGCUUCCAAAAGUUGCCCUGUGAGUUGAGUUACAUCCUUUGUAGCACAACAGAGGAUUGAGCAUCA` has a bound/input enrichment of 0.191 ratio.
`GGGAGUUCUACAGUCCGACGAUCUCAUUUUUCUCUUUUCUUUCUUUCCUUUAGGAAAAGCCUAAAGAUUAGUAAGAAAAGAAAACAGAAGCCAUGUUUCGAAGACCUGUAUUACAGGUAUUUCGUCAGUUUGUAAGACAUGAGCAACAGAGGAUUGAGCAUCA` has a bound/input enrichment of 0.172 ratio.
The bound/input enrichment of `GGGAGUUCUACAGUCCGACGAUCCACAGAGGAGAUCUGCUGUUCCUCACGAAUUUCCGGGAGGACCCCAUCAGAGCUGGUGAAAUAGUUGUUUUUAAGGUUGAAGGAAGAGACAUUCCAAUAGUUCACAGAGUAAUCAAAGUUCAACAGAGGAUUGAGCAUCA` is reported as 3.22 ratio.

Set 2
Target: RNA binding protein fox-1 homolog 2, RRM domain, GST-SBP tag (RBFOX2, Homo sapiens, UniProt O43251-10, residues 100-194)
Method: RNA Bind-n-Seq
Form: RNA
Medium: in vitro
Tested at: 365 nM
Notes: natural RNA segment, single round, ends assumed
Baseline: no-protein control
Direction: higher = stronger binding
Residues (chain): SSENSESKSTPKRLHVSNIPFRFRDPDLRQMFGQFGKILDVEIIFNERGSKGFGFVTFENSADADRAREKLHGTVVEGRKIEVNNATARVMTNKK
Under “RBNS enrichment (R)”, `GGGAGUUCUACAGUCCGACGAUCAGCUUGCAGAAGCUGCCAGCUGUGCUCACACCACCACCUGGGACAACCACUCGUUGGUCAAGUUCAGACACCAUCCAUGGAGGUUGCAGGAAAGCUGGGGAAGGUUAUGAUGGAAUUCUCGGGUGCCAA` is recorded as 0.384.
`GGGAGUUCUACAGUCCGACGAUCGGAGCUAUUUUCUUUUUUGUGCAUAUAGAUAUUUCUUAAAUGAAGCUGCUUUCUUGUCUUUUAUUUCUAAAAGCCCCCUUAUACCCCACUUUGUGCAGCAAAGAUCCCCGUGGAAUUCUCGGGUGCCAA`: “RBNS enrichment (R)” 1.29.
For `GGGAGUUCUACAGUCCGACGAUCAGCCCCCUCAAGUCCUGGGGUCCCAGCCUGUGCCCCCAGCUUCCUGCCCACCCAGCCCUGAGCAUUCUCACACAGAGAAAGAACAAGCAAGGGCUCCAGGGGGACAGGAUUGGAAUUCUCGGGUGCCAA`, “RBNS enrichment (R)” read 0.345.
`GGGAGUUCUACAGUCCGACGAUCUCAUGGAUACAAAGCUAGGUUUGUCUCUCAACUCUCAUACUGCCAAAAGUUAAACUAUGAUGCUUAAAUAUGUUUCUCUGCCUUAUUUUAUAAGUGUGUGAUAAUAGAUAUGGAAUUCUCGGGUGCCAA` — result for “RBNS enrichment (R)”: 0.655.
For `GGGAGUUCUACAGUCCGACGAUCGAACAUCAGCCCAAAAGACAGAAGAUUUUAUCACUCAUCUACCCCAAAGAUAAAGUUGUAUUUUUUUCUUAGAAUGGCCUUUAAUUCCCUGUGGCAAUUACAGUUUUUGAUGGAAUUCUCGGGUGCCAA`, “RBNS enrichment (R)” read 0.587.
For `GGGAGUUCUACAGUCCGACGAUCAUAAUAAGCCUUUUUACCUCUGUGUAAAAAAUAUAUAUACAAGUGUAUGAUGUACAUUUUAGUUCUUAACUUUUUUUUAUGGUUUCUAAUAUGUAUGACCAAUGUAGCCAUGGAAUUCUCGGGUGCCAA`, “RBNS enrichment (R)” read 0.636.
`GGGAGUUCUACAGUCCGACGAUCCUGAGCCCCCGGGGCCUCAAGGUAGGGAGCCGAAGAGGCUGCCAGGACUCUGCUGGGUUGAAAUUUGCCGGGGAGGACUCUUGUCUCCCCCUCAGGAGUAUUUUUGUUGAUGGAAUUCUCGGGUGCCAA`: “RBNS enrichment (R)” 0.942.
`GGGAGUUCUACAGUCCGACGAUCCAAUGAAUCCUUCCCGUUUUUCUUUUUAUGCCACACAGUGCAUUGUUUUUUCUACCUGCUUGUCUUAUUUUUAGAAUAAUUUAGAAAAACAAAACAAAGGCUGUUUUUCCUGGAAUUCUCGGGUGCCAA`: “RBNS enrichment (R)” 3.64.

Further values, each from its own experiment
P1: viral docking peptide; CKVKRKLFGSENI; partner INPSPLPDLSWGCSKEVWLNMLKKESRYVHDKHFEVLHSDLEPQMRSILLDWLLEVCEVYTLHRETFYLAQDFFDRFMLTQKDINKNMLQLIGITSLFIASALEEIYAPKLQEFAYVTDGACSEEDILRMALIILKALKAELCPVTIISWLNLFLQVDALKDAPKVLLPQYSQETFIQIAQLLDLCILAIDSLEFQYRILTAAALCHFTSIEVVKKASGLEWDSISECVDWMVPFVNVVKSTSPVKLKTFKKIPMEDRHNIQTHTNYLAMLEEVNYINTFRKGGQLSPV
The fold induction of `PhoQ, residues 284 288 289 292 302 303 TASMAF` is reported as 12.6 (PhoP, residues 12 14 15 18 19 STWGI (Escherichia coli, UniProt P23836); Sort-seq, measured: YFP reporter; E. coli; PhoQ-PhoP variant library, added: 10 µM Mg2+; baseline: high Mg2+ state, higher = stronger signaling).
Under “normalised enrichment score”, `P1 C1A` is recorded as 3.76 (CCNE2, cyclin fold, Cln2 fusion (human); yeast growth competition, sequencing; yeast; strong parent motif; baseline: not given, higher = stronger binding).

A few entries again (set 1):
With `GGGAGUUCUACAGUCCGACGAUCUACUCAACUUUCUUGCCACAUUUUGAAUUCCAAGACAUUAUUCCUCCAGAUGACUUCCUAACGAGUGAUGAAGAAGUAGAUUUGGUUUUAUUUGGAACUAUGAGAGGACAAGUUGUUGGACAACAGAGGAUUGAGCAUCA` the bound/input enrichment was 0.275 ratio.
`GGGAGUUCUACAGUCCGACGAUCGACUUUGGGACUGGUCCUCGUAAUGCAGCCUACUAUAGCCCUCAUGGACAUAUAUUAGUGCUGGCUGGAUUUGGAAAUCUUCGAGGACAAAUGGAAGUAUGGGAUGUUAAAAACUACAAGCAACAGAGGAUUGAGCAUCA` gave a bound/input enrichment of 0.385 ratio.
